{"data": "Experimental data of several laboratories", "note": "A part holds a random share of what one study measured. Positions count from the first letter of the parent shown."}
{"data": "Series 1", "target": "CCNB3, cyclin fold, Cln2 fusion (human)", "method": "yeast growth competition, sequencing", "matrix": "yeast", "notes": "weak parent motif", "baseline": "not given", "direction": "higher = stronger binding", "starting sequence": "PKN2 docking peptide (human); VSAVQKLDFSDTM"}
{"Change": "D11S", "normalised enrichment score": 0.333}
{"Change": "S2C", "normalised enrichment score": 0.447}
{"Change": "V4K", "normalised enrichment score": 0.232}
{"Change": "T12N", "normalised enrichment score": 0.16}
{"Change": "A3P", "normalised enrichment score": 0.537}
{"Change": "V4S", "normalised enrichment score": -0.153}
{"Change": "F9K", "normalised enrichment score": 0.267}
{"Change": "K6V", "normalised enrichment score": 0.44}
{"Change": "F9C", "normalised enrichment score": 0.064}
{"Change": "A3G", "normalised enrichment score": -0.0314}
{"Change": "K6D", "normalised enrichment score": 0.24}
{"Change": "K6T", "normalised enrichment score": 0.506}
{"data": "Series 2", "target": "ABI1, truncated, D143A, DHFR fusion (Arabidopsis thaliana)", "method": "DHFR PCA, deep sequencing", "matrix": "yeast", "notes": "methotrexate growth selection, single substitutions", "together with": "(+)-ABA 2500 µM", "baseline": "wild-type fitted maximum", "direction": "higher = stronger binding", "starting sequence": "PYL1, truncated, DHFR fusion (Arabidopsis thaliana); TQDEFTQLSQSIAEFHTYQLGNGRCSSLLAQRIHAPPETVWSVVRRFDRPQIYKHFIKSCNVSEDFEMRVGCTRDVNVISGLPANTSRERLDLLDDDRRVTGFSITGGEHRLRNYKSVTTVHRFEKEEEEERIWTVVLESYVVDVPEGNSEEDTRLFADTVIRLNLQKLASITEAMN"}
{"Change": "Q7E", "relative binding score [%]": 101}
{"Change": "D144M", "relative binding score [%]": 85.9}
{"Change": "I162W", "relative binding score [%]": 8.05}
{"Change": "F124C", "relative binding score [%]": 103}
{"Change": "E151G", "relative binding score [%]": 96.3}
{"Change": "V40Y", "relative binding score [%]": -17.8}
{"Change": "R74S", "relative binding score [%]": -3.21}
{"data": "Series 3", "target": "RNA binding protein fox-1 homolog 2, RRM domain, GST-SBP tag (RBFOX2, Homo sapiens, UniProt O43251-10, residues 100-194)", "method": "RNA Bind-n-Seq", "form": "RNA", "matrix": "in vitro", "tested at": "365 nM", "notes": "natural RNA segment, single round, ends assumed", "baseline": "no-protein control", "direction": "higher = stronger binding", "constant ends, left off below": "GGGAGUUCUACAGUCCGACGAUC … UGGAAUUCUCGGGUGCCAA", "Residues (chain)": "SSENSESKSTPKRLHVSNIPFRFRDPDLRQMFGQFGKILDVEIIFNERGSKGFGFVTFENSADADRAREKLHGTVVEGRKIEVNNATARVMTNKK"}
{"Sequence": "CACACCUGUAAUCCCUGCACUUUGGGAGGCCAAGGUGGGAGGAUCAGUUGAGCCCCAGAGUUCAAGACCAGCCUGGGCAAUGUAGUAAGACCCCCAUCGCUACAAAAAAU", "RBNS enrichment (R)": 1.27}
{"Sequence": "GCUUGAGACUGGUGUCUGUUUCAUCGUCCCAGGACACGGCAAAUGAAGUCAGAACAGAAGGAGGACGCUGGAGGGCCUUGCUGGCUACCGCUAUCUAAAGGGAACCCCCA", "RBNS enrichment (R)": 0.542}
{"Sequence": "CUUAUAAAGUUGGGGGAGCAGCUGGGUUUGUACCUAUAACCUCAGCCUUUGAGAGAGAUUGAGAAAGGAGGCCCGCUUUGAGGCUAGCUGGGCUACGCGGUGAGGCCCUG", "RBNS enrichment (R)": 0.704}
{"Sequence": "CUCUGCCUUGACCUGAGGAAGACCAUGCUAACUGGUGUUAUUUUGUAUGUACCCUGUGCUUAAUUCUAUAACAGUAAACCCCAUACGCAGGUGGGAGGGAGGAACACCGG", "RBNS enrichment (R)": 1.2}
{"Sequence": "CAGCCUUCCACAUCGUGUCAGUGUUGGCUGCCCAGGUUGGAAGCGAAGACUUGAUUGAUAGCAUGGUUUCAAGAGAGAAGUGGGGCCACACACAAAAUCACCAAUGAUUC", "RBNS enrichment (R)": 3.19}
{"Sequence": "UGGGCUGCCGCAGGGCACUGAAAGCCCAGGACCAGUAACCAAGGAGAACAACCCACCCGUCGCCCUUCUCCGUAUGCUGCCUGCGCCAGAAGAGCUUUGCUGGGCCCUGG", "RBNS enrichment (R)": 0.489}
{"Sequence": "GCUCUUGGAACCCUCCAGAGGAAGAGGCAAGCGUUUGACUUCCCCUUUACCACCUGAGGCCUCCUUAUAUCUCUUCCCAGAGUAAGCUUUGGGAUUGUAGACAUGUGGGA", "RBNS enrichment (R)": 0.179}
{"Sequence": "AGUCAUUCUGCUUCUCAUCUAAAUAUUUCCAUAUUCUGUAUUAGGAGAAAAUUACCCUCCCAGCACCAGCCCCCCUCUCAAACCCCCAACCCAAAACCAAGCAUUUUGGA", "RBNS enrichment (R)": 0.393}
{"data": "Mixed results"}
{"Molecule": "PhoQ, residues 284 288 289 292 302 303 GANMMA", "target": "PhoP, residues 12 14 15 18 19 IQSYL (Escherichia coli, UniProt P23836)", "assay": "Sort-seq, measured: YFP reporter", "system": "E. coli", "conditions": "PhoQ-PhoP variant library, together with: 10 µM Mg2+", "scale": "baseline: high Mg2+ state, higher = stronger signaling", "endpoint": "fold induction", "value": 3.92}
{"note": "Some of these lines once more (series 1):"}
{"Change": "F9K", "normalised enrichment score": 0.267}
{"Change": "K6V", "normalised enrichment score": 0.44}
